Measured values gathered from unrelated publications.
Each numbered part is a random draw from the data of one study; scales do not carry over between parts. Substitutions count along the parent as printed.

Sample 1
Target: ABI1, truncated, D143A, DHFR fusion (Arabidopsis thaliana)
Method: DHFR PCA, deep sequencing
Sample: yeast
Setting: methotrexate growth selection, single substitutions
With: (+)-ABA 200 µM
Relative to: wild-type fitted maximum
Direction: higher = stronger binding
Starting sequence: PYL1, truncated, DHFR fusion (Arabidopsis thaliana); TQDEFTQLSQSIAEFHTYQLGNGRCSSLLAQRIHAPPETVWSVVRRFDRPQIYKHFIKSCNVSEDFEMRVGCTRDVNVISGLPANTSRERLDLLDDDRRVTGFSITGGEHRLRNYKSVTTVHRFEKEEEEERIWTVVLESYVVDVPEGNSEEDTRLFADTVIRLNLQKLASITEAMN
`G107R` — result for “relative binding score”: 68.8%.
`V43K`: “relative binding score” 65.8%.
For `S11D`, “relative binding score” read 98.7%.
`D97C` — result for “relative binding score”: 87.8%.
For `S9F`, “relative binding score” read 85.6%.
For `C25W`, “relative binding score” read 25.3%.

Sample 2
Target: Interferon regulatory factor 7, full length, phosphomimetic (IRF7, Homo sapiens, UniProt Q92985, residues 1-503, S101K/S471D/S472D/S475D/S476D/S477D/S483D/S484D/S487D)
Method: protein-binding microarray
Molecule type: double-stranded DNA, one strand shown
Sample: in vitro
Tested at: 250 nM
Setting: 60-bp whole probe
With: salmon DNA 0.4 mg/ml
Relative to: random background probes
Direction: higher = stronger binding
Shared flanks, not repeated: GCCTAGCAC … GTCTTGATTCGCTTGACGCTGCTG
Target sequence (chain): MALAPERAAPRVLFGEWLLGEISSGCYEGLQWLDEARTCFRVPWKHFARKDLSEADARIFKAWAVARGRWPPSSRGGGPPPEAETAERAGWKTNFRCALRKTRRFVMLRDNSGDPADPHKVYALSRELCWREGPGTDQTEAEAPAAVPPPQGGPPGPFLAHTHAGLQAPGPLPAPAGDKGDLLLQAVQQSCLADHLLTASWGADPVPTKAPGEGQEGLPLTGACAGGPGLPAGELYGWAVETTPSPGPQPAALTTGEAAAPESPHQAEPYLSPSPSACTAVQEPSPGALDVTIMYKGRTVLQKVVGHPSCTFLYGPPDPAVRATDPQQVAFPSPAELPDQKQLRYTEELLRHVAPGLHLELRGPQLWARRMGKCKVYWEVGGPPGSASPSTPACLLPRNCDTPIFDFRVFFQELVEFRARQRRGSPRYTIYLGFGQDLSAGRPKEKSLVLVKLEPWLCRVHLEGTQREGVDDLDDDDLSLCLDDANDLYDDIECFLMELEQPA
With `TTCCCTTTTAAGTTCTCTGAGTGCTAG` the log fluorescence was 3.11 z-score.
`TTAGGACTGCTTCTCCTCTAGTGCTAG` gave a log fluorescence of 0.482 z-score.
With `TTAGGTTACGGTTCCGGTTAGTGCTAG` the log fluorescence was 2.67 z-score.
With `TTTTTTTTGCAAGCTAAAAAAGTGCTA` the log fluorescence was 0.667 z-score.
The log fluorescence of `GACGGTATCGGTCTCCGGACGTGCTAG` is reported as 0.66 z-score.
`GAGGGACTGGGACTGGGGACGTGCTAG` gave a log fluorescence of -0.61 z-score.
With `GGCGGACTGGACTATCGGGACGTGCTA` the log fluorescence was -0.721 z-score.
For `TCACTTCTCCTCTAGGTTACTGTGCTA`, the log fluorescence was 1.09 z-score.

Sample 3
Target: Histone acetyltransferase KAT6A, winged helix 1, GST fusion (KAT6A, Homo sapiens, UniProt Q92794, residues 1-85)
Method: protein binding microarray
Molecule type: double-stranded DNA, one strand shown
Sample: in vitro
Tested at: not given
Setting: 8-mer, flanks averaged, mean of 2 arrays, mostly near background
Relative to: not given
Direction: higher = stronger binding
Target sequence (chain): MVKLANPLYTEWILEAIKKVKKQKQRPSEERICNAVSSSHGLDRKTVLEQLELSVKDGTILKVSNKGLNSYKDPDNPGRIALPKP
`ACCGTCTA` has an E-score of 0.034.
With `CAATCTTC` the E-score was -0.192.
With `CGTTGGAA` the E-score was -0.0844.
For `CTGGTTGC`, the E-score was -0.0861.
`TGCGAGCA` gave an E-score of -0.118.
The E-score of `AAACTCAG` is reported as -0.249.
For `GTCCGACA`, the E-score was 0.138.
With `GCATCCGA` the E-score was 0.12.
The E-score of `ATGGAGCA` is reported as -0.09.
With `AACAACCC` the E-score was 0.0315.
The E-score of `ATCGCCTA` is reported as -0.046.

Single results of other studies
For `PhoQ, residues 284 288 289 292 302 303 AQGLTV`, the fold induction was 7.12 (PhoP, residues 12 14 15 18 19 NQGLL (Escherichia coli, UniProt P23836); Sort-seq, item: YFP reporter; E. coli; PhoQ-PhoP variant library, with: 10 µM Mg2+; relative to: high Mg2+ state, higher = stronger signaling).
